Measurements gathered from unrelated publications.
Compare with care: the assays were run in different laboratories. ± gives the spread as reported.
Cell line: HeLa

SMILES | read-out | method | time | pH | setting | added | IC50
CC(C)C[C@H](NC(=O)[C@H](CCCCN)NC(=O)[C@H](CC(C)C)NC(=O)[C@H](CC(C)C)NC(=O)[C@H](CCCCN)NC(=O)[C@H](CCCCN)NC(=O)[C@H](CC(C)C)NC(=O)[C@H](CC(C)C)NC(=O)[C@H](CCCCN)NC(=O)[C@H](CC(C)C)NC(=O)[C@H](CC(C)C)NC(=O)[C@H](CCCCN)NC(=O)[C@H](CCCCN)NC(=O)[C@H](CC(C)C)NC(=O)[C@@H](N)CSSC[C@H](N)C(=O)N[C@@H](CC(C)C)C(=O)N[C@@H](CCC(=O)O)C(=O)N[C@@H](CCC(=O)O)C(=O)N[C@@H](CC(C)C)C(=O)N[C@@H](CC(C)C)C(=O)N[C@@H](Cc1c[nH]cn1)C(=O)N[C@@H](Cc1c[nH]cn1)C(=O)N[C@@H](CC(C)C)C(=O)N[C@@H](CCC(=O)O)C(=O)N[C@@H](CCC(=O)O)C(=O)N[C@@H](CC(C)C)C(=O)N[C@@H](CC(C)C)C(=O)N[C@@H](Cc1c[nH]cn1)C(=O)N[C@@H](Cc1c[nH]cn1)C(N)=O)C(N)=O | cell growth or viability | MTT | – | pH 6 | – | – | 10.2 µM
CCCCCCCCc1ccc(C(=O)N[C@@H](CO)C(=O)N[C@H](C(=O)N[C@@H](C)C(=O)N[C@H](C(=O)O)[C@@H](C)CC)[C@@H](C)OP(=O)(O)O)cc1 | cell growth or viability | MTT | 72 h | – | – | – | 128 µM
CC1=C(I)C(C)=[N+]2C1=C(c1ccc(OCCn3cc(CNC(=O)CSC[C@H](NC(=O)c4ccc(-c5nnc(C)nn5)cc4)C(=O)N[C@@H](CC4CCCCC4)C(=O)N[C@H](CCCNC(=N)N)C(=O)N[C@@H](CC4CCCCC4)C(=O)N[C@H](CCCNC(=N)N)C(=O)N[C@@H](CC4CCCCC4)C(=O)N[C@H](CCCNC(=N)N)C(N)=O)nn3)cc1)c1c(C)c(I)c(C)n1[B-]2(F)F | phototoxicity | – | 2 h plus 18 h | – | 2.5% FBS | irradiation 525 nm for 160 s | 0.599 ± 0.043 µM
O=C(Cc1ccc2ccccc2c1)N[C@H](Cc1ccc(OP(=O)(O)O)cc1)C(=O)N[C@H](Cc1ccccc1)C(=O)N[C@H](Cc1ccccc1)C(=O)N[C@H](Cc1ccc(OP(=O)(O)O)cc1)C(=O)O | cell growth or viability | MTT | – | – | – | – | > 483 µg/mL
CO[C@@H]1[C@@H](O)[C@H](O[C@H]2CC[C@@]3(C)[C@H](CC[C@@H]4[C@@H]3CC[C@]3(C)[C@@H](C5=CC(=O)OC5)[C@@H](O)C[C@]43O)C2)O[C@H](C)[C@@H]1O[C@@H]1O[C@H](CO)[C@@H](O)[C@H](O)[C@H]1O | cell growth or viability | MTT | 48 h | – | – | – | 0.6 µM
C[C@@H](N)[C@H](O)CCCCCCCC(=O)CCCCCCCCCCCCCC[C@@H](O[C@@H]1O[C@H](CO)[C@@H](O)[C@H](O)[C@H]1O)[C@@H](N)CO | cell growth or viability | – | – | – | – | – | 24.9 µM
CC(C)[C@H](NC(=O)[C@H](CCCNC(=N)N)NC(=O)[C@H](CCC(=O)O)NC(=O)[C@H](CCCNC(=N)N)NC(=O)[C@@H](NC(=O)[C@H](CCCNC(=N)N)NC(=O)[C@@H](NC(=O)[C@@H]1CCCN1C(=O)[C@H]1CCCN1C(=O)[C@@H](NC(=O)[C@H](CCCNC(=N)N)NC(=O)[C@@H](NC(=O)[C@H](CCCNC(=N)N)NC(=O)[C@@H](NC(=O)[C@H](CCCNC(=N)N)NC(=O)[C@@H](NC(=O)[C@@H](N)CCCCN)C(C)C)C(C)C)C(C)C)C(C)C)[C@@H](C)O)C(C)C)C(=O)N[C@@H](CCCCN)C(N)=O | – | – | – | – | – | – | 263 µM
CC(C)C[C@H](NC(=O)[C@H](CC(C)C)NC(=O)[C@H](CCC(=O)O)NC(=O)[C@H](Cc1c[nH]cn1)NC(=O)[C@H](CC(C)C)NC(=O)[C@H](Cc1c[nH]cn1)NC(=O)[C@H](CCC(=O)O)NC(=O)[C@H](CC(C)C)NC(=O)[C@H](CC(C)C)NC(=O)[C@H](CCC(=O)O)NC(=O)[C@H](Cc1c[nH]cn1)NC(=O)[C@@H](N)CC(C)C)C(=O)N[C@@H](CCC(=O)O)C(=O)N[C@@H](Cc1c[nH]cn1)C(N)=O | cell growth or viability | MTT | – | pH 6 | – | – | > 100 µM
COc1ccc(C(c2c(C)nn(-c3ccccc3)c2O)c2c(C)nn(-c3ccccc3)c2O)cc1 | cell growth or viability | MTT | 48 h | – | – | – | 19.2 µM

A few entries again:
SMILES | read-out | method | time | pH | setting | added | IC50
O=C(Cc1ccc2ccccc2c1)N[C@H](Cc1ccc(OP(=O)(O)O)cc1)C(=O)N[C@H](Cc1ccccc1)C(=O)N[C@H](Cc1ccccc1)C(=O)N[C@H](Cc1ccc(OP(=O)(O)O)cc1)C(=O)O | cell growth or viability | MTT | – | – | – | – | > 483 µg/mL
